{"data": "Measured values from different studies"}
{"Structure (SMILES)": "C#C[C@]1(CO)O[C@@H](n2cnc3c(N)nc(F)nc32)C[C@@H]1O", "system": "human, plasma", "conditions": "oral, 30 mg, single dose, geometric mean", "measurement": "Vz/F", "value": "1870 L"}
{"Structure (SMILES)": "Fc1ccc([C@@H]2CCNC[C@H]2COc2ccc3c(c2)OCO3)cc1", "system": "human, CYP2D6 intermediate metabolizers", "conditions": "oral, 20 mg, steady state, geometric mean", "measurement": "Vz/F", "value": "834 L"}
{"Structure (SMILES)": "CN(C)C(=O)c1cc2cnc(Nc3ccc(N4CCNCC4)cn3)nc2n1C1CCCC1", "system": "human, moderate renal impairment, plasma", "conditions": "oral, 400 mg, geometric mean", "measurement": "Vz/F", "value": "3640 L"}
{"Structure (SMILES)": "CN1C(=O)[C@@H](NC(=O)c2nnc(Cc3ccccc3)[nH]2)COc2cccnc21", "system": "healthy human, fasted, plasma", "conditions": "oral, 800 mg single dose, geometric mean", "measurement": "Vz/F", "value": "112 L"}
{"Structure (SMILES)": "C[C@@H](c1ccc2nccn2c1)n1nnc2ncc(-c3cnn(C)c3)nc21", "system": "human, plasma", "conditions": "oral, 300 mg, cycle 2 day 1, multiple doses", "measurement": "Vz/F", "value": "180 L"}
{"Structure (SMILES)": "N#Cc1ccc2c(c1)[C@H]1CCCN(C(=O)c3ccc4[nH]cnc4c3)[C@H]1C2", "system": "human, plasma", "conditions": "oral, 240 mg once daily, steady state", "measurement": "Vz/F steady state", "value": "762 L"}
{"Structure (SMILES)": "Cn1cc(-c2cn3nccc3c(-c3cnn([C@]4(CC#N)C[C@@H](C#N)C4)c3)n2)cn1", "system": "healthy human", "conditions": "400 mg once daily", "measurement": "Vz/F", "value": "519 L"}
{"Structure (SMILES)": "C[C@H](Oc1ccc(Br)cc1-c1ccon1)C(=O)O", "system": "healthy male humans, plasma", "conditions": "oral, 400 mg once daily, day 10", "measurement": "Vz/F", "value": "33.5 L"}
{"note": "A few entries again:"}
{"Structure (SMILES)": "Fc1ccc([C@@H]2CCNC[C@H]2COc2ccc3c(c2)OCO3)cc1", "system": "human, CYP2D6 intermediate metabolizers", "conditions": "oral, 20 mg, steady state, geometric mean", "measurement": "Vz/F", "value": "834 L"}
